# Measurements collected from several papers.
# A part holds a random share of what one study measured. Changes are numbered by the printed parent chain.

# Sample 1
# Target: Prothrombin, mature alpha-thrombin (F2, Homo sapiens, UniProt P00734)
# Technique: aptamer microarray, sandwich
# Molecule type: DNA with 2'F-ANA
# Matrix: in vitro
# Tested at: 200 nM
# Notes: whole 15-mer aptamer, many near background
# Together with: Cy3 exosite-II aptamer, 400 nM
# Direction: higher = stronger binding
# Oligonucleotide: GGTTGGTGTGGTTGG
Modification,mean fluorescence intensity [a.u.]
2'F-ANA at 1 3 4 6 7 8 11 14 15,71.2
2'F-ANA at 1 3 4 5 6 9 12 13,81.3
2'F-ANA at 1 2 4 8 9 10 14 15,72.4
2'F-ANA at 1 2 3 4 5 11 12,135
2'F-ANA at 1 4 5 6 8 9 14 15,48.3
2'F-ANA at 2 3 5 6 7 9 10,79.7
2'F-ANA at 2 4 6 9 11 12 13,282
2'F-ANA at 3 4 5 6 9 12 14,51.1
2'F-ANA at 3 5 10 11 12,68.2
2'F-ANA at 2 3 4 6 9 10 11 13 14 15,136
2'F-ANA at 1 4 7 8 12 13 14,59.9
2'F-ANA at 3 4 5 9 11 12 15,146
2'F-ANA at 1 4 5 6 7 8 9 11 12 13 15,63.9
2'F-ANA at 1 2 3 4 6 7 9 10 11 14,47.1
2'F-ANA at 3 4 5 6 7 10 11 12 14 15,94.8
2'F-ANA at 2 11 13 14,123
2'F-ANA at 1 4 5 7 8 10 11 12 13,52.1
2'F-ANA at 4 6 7 9 11,201
2'F-ANA at 2 7 8 9 11 13 15,351
2'F-ANA at 2 5 7 8 11 14 15,47.6

# Sample 2
# Target: RNA binding protein fox-1 homolog 2, RRM domain, GST-SBP tag (RBFOX2, Homo sapiens, UniProt O43251-10, residues 100-194)
# Technique: RNA Bind-n-Seq
# Molecule type: RNA
# Matrix: in vitro
# Tested at: 365 nM
# Notes: natural RNA segment, single round, ends assumed
# Relative to: no-protein control
# Direction: higher = stronger binding
# Constant ends, left off below: GGGAGUUCUACAGUCCGACGAUC … UGGAAUUCUCGGGUGCCAA
# Residues (chain): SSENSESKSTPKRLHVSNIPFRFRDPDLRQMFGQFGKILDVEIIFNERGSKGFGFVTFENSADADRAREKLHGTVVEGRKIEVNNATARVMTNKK
Oligonucleotide,RBNS enrichment (R)
CCAGGGACCACUGGGUGAGAGAGGAAUAAGGCCCAGAGCGAGGAAAGGAUUUUACCAAAGCAUCAAUACAACCAGCCCAACCAUCGGUCCACACCUGGGCAUUUGGUGAG,0.68
CUCUGCAGUCAGUCUGUUUUCAGAGGCACCCCAGCGAGCCCAGUGCAAGCCCGUAACCCUCCAGAGCUCCUUCACACUGCGCUCUCCAAACCACCCCAUCCUCACAGCGA,0.594
UCUUCAUUUGGAGGAAUCACCCCAUUUCAGAGUUAUCAAGAGACACUCCCCCCUCCAUUCCCACCCCUCAUACCUACACCCAAGGUUGUCAGCUUUGGAUUGCUGGGGCC,0.369
UCAAAAUGGAAAGAUGGGAAUGUCUCAAAACAAAAUGAGCUUGGAGAUUACCAAGCAGUUUGCUGAAAAUUCAAUCUUUGACCCAAACUGUAGCAAUUUUUAUUUUCUGA,0.479
UGACAGCAGGUGACCUUGUCUGCCAAGAUCUUCCUUUUGAGUGUUUAAGCCCAACUACUUGUCAUAUAUGUCUGAAUGUCAAAAGCUGUCAGCAGCACAACACAAUCUAU,0.602
UGUUGUUGCAGAUCAGUAAUUGUGCCUAAAAGAGACAGAAGUGAAAAAGAGACAAGCUCUGAGGGCAAAACCCAUACAAAUUUGGAGCAAAUAAAAGCCCAGGUCUGAGA,0.516
CAUAAGUAUAAGAAAUAUGCAUCAUAUCUGCCUAUUGCAGGCUUCUGAAACUUGCACUGCCCAUCCAUGCAAAAAUAAGUAUCUUAAAUAAAAGCAGAGAGCAAAAACUG,0.35
AAGCAAAGACCAAAGAUGCAUCAGCUUAAAGAGAAGUCAGACGACAAUGACGAAUCAUUCCAAGGCCAAGCUGCAACUGAGCCACUCACCCACCAACAGGAAGGCCUGGU,0.556

# Sample 3
# Target: CCNA1, cyclin fold, Cln2 fusion (human)
# Technique: yeast growth competition, sequencing
# Matrix: yeast
# Notes: strong parent motif
# Relative to: not given
# Direction: higher = stronger binding
# Starting sequence: E2F1 docking peptide (human); PPVKRRLDFETDH
Substitution,normalised enrichment score
PPVKRRLDFETHH [D12H],1.82
PPVKRRLIFETDH [D8I],1.55
PPVHRRLDFETDH [K4H],1.66
PPVNRRLDFETDH [K4N],1.06
PPHKRRLDFETDH [V3H],0.604
PPVKRRLDFEEDH [T11E],1.66
PPSKRRLDFETDH [V3S],1.7
PPVRRRLDFETDH [K4R],1.56
PPQKRRLDFETDH [V3Q],0.355
PPVKRRLDEETDH [F9E],0.572
PPVERRLDFETDH [K4E],0.0424
PPVKRRLDFSTDH [E10S],1.51
PPVKRRLYFETDH [D8Y],2.06
PPVKRRNDFETDH [L7N],0.00935
PPVKDRLDFETDH [R5D],0.217
PPVKRRLDFDTDH [E10D],1.66
PPVSRRLDFETDH [K4S],1.47
PPVKRRLDCETDH [F9C],0.165
PPVKRRLDMETDH [F9M],1.21
PPVKRRLDFETVH [D12V],2.1
PPKKRRLDFETDH [V3K],0.565
PPVKRRLLFETDH [D8L],1.41
PPVKRHLDFETDH [R6H],1.08
PPLKRRLDFETDH [V3L],0.882
PPVKRRLDFEQDH [T11Q],1.68

# Sample 4
# Target: Sal-like protein 4, full length isoform B (SALL4, Homo sapiens, UniProt Q9UJQ4-2, residues 1-616)
# Technique: universal PBM
# Molecule type: double-stranded DNA, one strand shown
# Matrix: in vitro
# Tested at: not given
# Notes: 8-mer, flanks averaged, mean of replicates
# Direction: higher = stronger binding
# Residues (chain): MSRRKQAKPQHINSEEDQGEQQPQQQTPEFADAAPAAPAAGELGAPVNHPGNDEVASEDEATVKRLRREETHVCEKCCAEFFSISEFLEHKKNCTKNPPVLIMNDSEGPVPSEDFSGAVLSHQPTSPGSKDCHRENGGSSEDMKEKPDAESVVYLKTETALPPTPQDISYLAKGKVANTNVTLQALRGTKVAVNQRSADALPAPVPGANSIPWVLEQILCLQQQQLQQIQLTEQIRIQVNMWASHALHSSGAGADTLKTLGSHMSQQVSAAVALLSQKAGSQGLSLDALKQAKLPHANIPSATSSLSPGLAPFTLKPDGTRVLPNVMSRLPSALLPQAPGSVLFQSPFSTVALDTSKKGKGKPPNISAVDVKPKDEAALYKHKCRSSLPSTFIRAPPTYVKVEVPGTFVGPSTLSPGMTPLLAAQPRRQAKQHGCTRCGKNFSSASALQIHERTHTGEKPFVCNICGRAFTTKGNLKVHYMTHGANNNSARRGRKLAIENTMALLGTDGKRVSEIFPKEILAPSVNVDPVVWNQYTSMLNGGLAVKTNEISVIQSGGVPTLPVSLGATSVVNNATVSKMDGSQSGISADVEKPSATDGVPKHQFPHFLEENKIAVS
Oligonucleotide,E-score
CATTTACG,0.0919
CCTATGAG,0.0913
CCCGTCGA,-0.187
CTATGCTA,0.2
GTCAGCAA,0.025
CCGGGCCC,-0.349
TGGGGAAA,-0.0179
ACCTTATG,0.242
CCTCGGCA,-0.172
ATTGGGCG,-0.0518
GGCCGAGA,-0.12
AGCTTCAG,-0.0778
ATCGACTC,-0.0381
CAGTACAA,0.128
ACTGCCAC,-0.063
CCAAAACA,0.128
AACGGTGA,-0.133
GCCAAGCC,-0.241
AACTCTAT,0.11
CCACGTTC,-0.188
ACGGCCAT,-0.167
